{"data": "Assay results gathered from unrelated publications", "note": "“And” joins repeats or separate records; there may be more than shown."}
{"SMILES": "COCCOCCOCCOc1ccc(/C=C/c2c(I)c(C)c3n2[B-](F)(F)[N+]2=C(C)C(I)=C(C)C2=C3c2cc(OC)cc(OC)c2)cc1", "test system": "THF", "absorption maximum": "598 nm"}
{"SMILES": "COC(=O)c1ccccc1-c1c2ccc(=N)cc-2oc2c1ccc1cccc(OC)c12", "test system": "phosphate buffer", "conditions": "10 to 15 µM, pH 7.4, 10% DMSO", "absorption maximum": "538 nm"}
{"SMILES": "CCCCN1C(=O)c2cccc3c(NCCCCCCN4CCOCC4)ccc(c23)C1=O", "test system": "aqueous medium", "conditions": "pH 6", "absorption maximum": "454 nm"}
{"SMILES": "CC1(C)C(/C=C/C2=C(Cl)C(=C/C=C3/N(CCCCCC(=O)O)c4ccccc4C3(C)C)/C[N+](C)(C)C2)=[N+](CCCCCC(=O)O)c2ccccc21", "test system": "10 mM PBS", "conditions": "pH 7.4", "absorption maximum": "745 nm"}
{"SMILES": "CC1=CC(C)=[N+]2C1=C(CCCC(=O)NCCCC[C@H](NC(=O)N[C@@H](CCC(=O)O)C(=O)O)C(=O)O)c1c(C)cc(C)n1[B-]2(F)F", "test system": "acetonitrile/water", "absorption maximum": "495 nm"}
{"SMILES": "COc1cc(OC)cc(C2=C3C(C)=C(I)C(/C=C/c4c[nH]c5ccccc45)=[N+]3[B-](F)(F)n3c(/C=C/c4c[nH]c5ccccc45)c(I)c(C)c32)c1", "test system": "DMSO", "absorption maximum": "727 nm"}
{"SMILES": "CC1=CC(C)=[N+]2C1=C(c1ccc(C[P+](c3ccccc3)(c3ccccc3)c3ccccc3)cc1)c1c(C)cc(C)n1[B-]2(F)F", "test system": "PBS", "conditions": "10 µM, pH 7.4, 298 K", "absorption maximum": "497 nm"}
{"SMILES": "COC(=O)c1ccccc1-c1c2ccc(=O)cc-2oc2c1ccc1cccc(O)c12", "test system": "aqueous HCl 10% DMSO", "conditions": "10 to 15 µM, pH 1.9", "absorption maximum": "530 nm"}
{"SMILES": "COc1cc(OC)cc(C2=C3C(C)=C(I)C(C)=[N+]3[B-](F)(F)n3c(/C=C/c4c[nH]c5ccccc45)c(I)c(C)c32)c1", "test system": "dichloromethane", "absorption maximum": "618 nm"}
{"SMILES": "CCCCN1C(=O)c2cccc3c(NCCN4CCOCC4)ccc(c23)C1=O", "test system": "aqueous medium", "conditions": "pH 6", "absorption maximum": "441 nm"}
{"SMILES": "COc1cc(OC)cc(C2=C3C(C)=C(I)C(/C=C/c4cccs4)=[N+]3[B-](F)(F)n3c(/C=C/c4cccs4)c(I)c(C)c32)c1", "test system": "THF", "absorption maximum": "670 nm"}
{"SMILES": "COc1ccc(/C=C/c2ccc(-c3ccc(C)cn3)nc2)cc1", "test system": "acetonitrile", "conditions": "zinc-free ligand", "absorption maximum": "345 nm"}
{"SMILES": "CC1=CC(C)=[N+]2C1=C(CCCC(=O)O)c1c(C)cc(C)n1[B-]2(F)F", "test system": "acetonitrile/water", "absorption maximum": "494 nm"}
{"SMILES": "Cc1ccc(-c2ccc(-c3cc4sccc4o3)cn2)nc1", "test system": "aqueous HEPES buffer", "conditions": "pH 7.4, zinc(II) complex", "absorption maximum": "372 nm"}
{"SMILES": "CCc1ccc(C2=C3C(C)=CC(C)=[N+]3[B-](F)(F)n3c(C)cc(C)c32)cc1", "test system": "PBS", "conditions": "10 µM, pH 7.4, 298 K", "absorption maximum": "488 nm and 538 nm"}
{"SMILES": "CCCCN1C(=O)c2cccc3c(NCCCCCCCCN4CCOCC4)ccc(c23)C1=O", "test system": "aqueous medium", "conditions": "pH 6", "absorption maximum": "453 nm"}
{"SMILES": "COC(=O)c1cc(=O)n(C)c2c(-c3ccc(OC)cc3)csc12", "test system": "dichloromethane", "conditions": "10 µM", "absorption maximum": "235 nm"}
{"SMILES": "CC1=CC(C)=[N+]2C1=C(c1ccc(C[P+](c3ccccc3)(C3CCCCC3)C3CCCCC3)cc1)c1c(C)cc(C)n1[B-]2(F)F", "test system": "PBS", "conditions": "10 µM, pH 7.4, 298 K", "absorption maximum": "497 nm"}
{"SMILES": "COc1cc(OC)cc(C2=C3C(C)=C(I)C(C)=[N+]3[B-](F)(F)n3c(C)c(I)c(C)c32)c1", "test system": "DMSO", "absorption maximum": "538 nm"}
{"SMILES": "COc1cc(/C=C2\\SC(=S)NC2=O)cc(OC)c1OCc1ccc(B2OC(C)(C)C(C)(C)O2)cc1", "test system": "PBS", "conditions": "free ligand", "absorption maximum": "540 nm"}
{"SMILES": "COc1ccc2cc(-c3ccc(-c4ccc(C)cn4)nc3)oc2c1", "test system": "acetonitrile", "conditions": "zinc-free ligand", "absorption maximum": "347 nm"}
{"SMILES": "CCn1cc(/C=C/c2sc3ccccc3[n+]2CC)c2ccccc21", "test system": "DMSO", "conditions": "10 µM", "absorption maximum": "478 nm"}
{"SMILES": "COc1cc(OC)cc(C2=C3C(C)=C(I)C(/C=C/c4c[nH]c5ccc([N+](=O)[O-])cc45)=[N+]3[B-](F)(F)n3c(/C=C/c4c[nH]c5ccc([N+](=O)[O-])cc45)c(I)c(C)c32)c1", "test system": "THF", "absorption maximum": "695 nm"}
{"SMILES": "COC(=O)c1ccccc1-c1c2ccc(=[N+](C)C)cc-2oc2c1ccc1cccc(O)c12", "test system": "aqueous HCl 10% DMSO", "conditions": "10 to 15 µM, pH 1.9", "absorption maximum": "567 nm"}
{"SMILES": "CC1=[N+]2C(=C(CCl)c3ccc(C)n3[B-]2(F)F)C=C1", "test system": "PBS/DMSO 90:10 v/v", "conditions": "about 1 µM, pH 8.0", "absorption maximum": "528 nm"}
{"SMILES": "CCOC(=O)c1[nH]c(C)c(/C=C/c2c(I)c(C)c3n2[B-](F)(F)[N+]2=C(C)C(I)=C(C)C2=C3c2cc(OC)cc(OC)c2)c1C", "test system": "DMSO", "absorption maximum": "612 nm"}
{"SMILES": "O=C([O-])CN1CCN(CC(=O)[O-])CCN(CC(=O)c2ccc(-c3ccc(OCC(=O)O)cc3)cc2)CCN(CC(=O)[O-])CC1.[Eu+3]", "test system": "PBS", "conditions": "pH 7.4", "absorption maximum": "342 nm"}
{"SMILES": "CCn1cc(/C=C/c2ccc3ccccc3[n+]2CC)c2ccccc21", "test system": "MeOH", "conditions": "10 µM", "absorption maximum": "483 nm"}
{"SMILES": "Nc1ncnc2c1nc(-n1nnc3c1CCC1C(CO)C1CC3)n2C1CC(O)C(CO)O1 (mixture of isomers)", "test system": "methanol", "absorption maximum": "272 nm"}
{"SMILES": "CCOC(=O)c1[nH]c(C)c(/C=C/C2=[N+]3C(=C(c4cc(OC)cc(OC)c4)c4c(C)c(I)c(/C=C/c5c(C)[nH]c(C(=O)OCC)c5C)n4[B-]3(F)F)C(C)=C2I)c1C", "test system": "dichloromethane", "absorption maximum": "678 nm"}
{"SMILES": "COc1cc(/C=C2\\SC(=S)NC2=O)cc(OC)c1OCc1ccccc1[N+](=O)[O-]", "test system": "PBS", "conditions": "free ligand", "absorption maximum": "445 nm"}
{"note": "Repeated from above:"}
{"SMILES": "COc1cc(OC)cc(C2=C3C(C)=C(I)C(/C=C/c4cccs4)=[N+]3[B-](F)(F)n3c(/C=C/c4cccs4)c(I)c(C)c32)c1", "test system": "THF", "absorption maximum": "670 nm"}
{"SMILES": "COc1cc(OC)cc(C2=C3C(C)=C(I)C(/C=C/c4c[nH]c5ccccc45)=[N+]3[B-](F)(F)n3c(/C=C/c4c[nH]c5ccccc45)c(I)c(C)c32)c1", "test system": "DMSO", "absorption maximum": "727 nm"}
